Assay results gathered from unrelated publications.

Structure (SMILES) = COc1cc(CNC(=O)C[C@H](C)CCC=C(C)C)ccc1OCc1cn(-c2ccccc2)nn1; cell line = HCC 2998; test = SRB; setting = 10 µM, 48 h; endpoint = growth percent; result = 93.3%
Structure (SMILES) = COc1cc(OC)cc(C(O)c2c[nH]c3ncc(C(F)(F)F)cc23)c1 (centres unmarked); cell line = 4T1; test = cell growth or viability, MTT; setting = 10 µM, 72 h; endpoint = inhibition; result = 23%
Structure (SMILES) = O=C(COc1ccc(/C=N/Nc2nc(-c3ccc(Cl)cc3)cs2)cc1)N1CCN(C(=O)COc2ccc(/C=N/Nc3nc(-c4ccc(Cl)cc4)cs3)cc2)CC1; cell line = HDF; test = cell growth or viability, SRB; setting = 100 µM, 48 h; endpoint = inhibition; result = 40.6%
Structure (SMILES) = O=C(c1ccc(Oc2ccc(C3CCCCC3)cc2)c([N+](=O)[O-])c1)C(Cl)Cl; cell line = NCI-H1975; test = cell growth or viability, MTT; setting = 2.5 µM; endpoint = inhibition; result = > 95%
Structure (SMILES) = C/C(=N\N=C1/NC(=O)CS1)c1ccccn1; cell line = HEp-2; test = cell growth or viability, SRB; setting = 100 µg/mL, 48 h; endpoint = inhibition; result = 59.9%
Structure (SMILES) = Cc1cc(S(=O)(=O)N(CCC(F)(F)F)c2ccc(C(=O)NCCC(=O)O)cc2)cc(C)c1-c1ccc(C(C)(C)C)cc1; cell line = mouse primary hepatocytes; test = glucose production; setting = 20 µM, gluconeogenic substrates, together with: glucagon 10 nM; endpoint = inhibition; result = 71%
Structure (SMILES) = CCNC(=S)N/N=C(\C)c1ccccn1; cell line = HEp-2; test = cell growth or viability, SRB; setting = 100 µg/mL, 48 h; endpoint = inhibition; result = 69.5%
Structure (SMILES) = Cc1nc2ccc(Cc3c[nH]c4ncc(C(F)(F)F)cc34)cc2o1; cell line = 4T1; test = cell growth or viability, MTT; setting = 10 µM, 72 h; endpoint = inhibition; result = 23%
Structure (SMILES) = CC(C)C[C@H](NC(=O)[C@H](CO)NC(=O)[C@H](CCCNC(=N)N)NC(=O)[C@H](CCCCN)NC(=O)[C@@H](NC(=O)[C@@H](NC(=O)CNC(=O)[C@H](CCCNC(=N)N)NC(=O)[C@H](Cc1c[nH]cn1)NC(=O)[C@H](Cc1c[nH]c2ccccc12)NC(=O)[C@H](Cc1ccccc1)NC(=O)[C@H](Cc1c[nH]cn1)NC(=O)[C@H](Cc1ccc(O)cc1)NC(=O)[C@@H](N)Cc1ccc(O)cc1)C(C)C)[C@@H](C)O)C(=O)N[C@@H](CO)C(=O)N1CCC[C@H]1C(=O)N[C@@H](Cc1c[nH]cn1)C(=O)N[C@@H](CCCNC(=N)N)C(=O)N1CCC[C@H]1C(=O)N[C@@H](CCCNC(=N)N)C(=O)N[C@@H](Cc1c[nH]cn1)C(=O)N[C@@H](CO)C(=O)N[C@@H](CCCNC(=N)N)C(=O)O; cell line = THP-1; test = IL-1β secretion, ELISA; setting = 5 µM, 4 to 12 h, together with: LPS; endpoint = inhibition; result = 15%
Structure (SMILES) = O=C(COc1ccc(/C=N/Nc2nc(-c3ccc(Br)cc3)cs2)cc1)N1CCN(C(=O)COc2ccc(/C=N/Nc3nc(-c4ccc(Br)cc4)cs3)cc2)CC1; cell line = HDF; test = cell growth or viability, SRB; setting = 100 µM, 48 h; endpoint = inhibition; result = 58.4%
Structure (SMILES) = COc1cc(CNC(=O)C[C@H](C)CCC=C(C)C)ccc1OCc1cn(-c2ccccc2Cl)nn1; cell line = HCC 2998; test = SRB; setting = 10 µM, 48 h; endpoint = growth percent; result = 91.9%
Structure (SMILES) = COc1ccc2c(c1)/C(=N\Nc1nnc3n1N=C(c1ccccc1)CS3)C(=O)N2; cell line = M14; test = cell growth or viability, SRB; setting = 10 µM; endpoint = inhibition; result = 29%
Structure (SMILES) = COc1cc(Cc2c[nH]c3ncc(C(F)(F)F)cc23)cc(OC)c1; cell line = 4T1; test = cell migration; setting = 30 µM, 24 h; endpoint = inhibition; result = 93.8%
Structure (SMILES) = C=CC(=O)Nc1ccc(F)c(-c2ncnc3[nH]cc(C(=O)OCC)c23)c1; cell line = mouse CD4 T-cell blasts; test = S-phase entry; setting = 100 nM, added 8 h after IL-2, together with: IL-2; endpoint = inhibition; result = 95%
